Assay results from different studies.
Each numbered part is a random draw from the data of one study; scales do not carry over between parts.

Sample 1
Cell line: HEK-293T
Effect on: pseudovirus infection
Method: FDA-approved drug library screen
Organism: VSV pseudotyped with SARS-CoV-2 spike
Tested at: 10 µM
Time: 16 h
Baseline: vehicle-treated
SMILES | GFP-positive cells [%]
CC(C)NCC(O)c1ccc(O)c(O)c1 (stereo not shown) | 110
CCCN(CCC)S(=O)(=O)c1ccc(C(=O)O)cc1 | 93.2
CCn1cc(C(=O)O)c(=O)c2cc(F)c(N3CCNCC3)cc21 | 63.3
Cc1cc(C2CCCCC2)n(O)c(=O)c1 | 58.3
Cc1nnc(NS(=O)(=O)c2ccc(N)cc2)s1 | 82

Sample 2
Target: Replicase polyprotein 1ab, main protease (rep, Severe acute respiratory syndrome coronavirus 2, UniProt P0DTD1)
Effect on: enzyme activity
Action: inhibitor
Tested at: 20 µM
Setting: hit confirmation, with DTT
SMILES | inhibition
O=C(C=Cc1ccc(O)c2c1C(C(=O)OC(Cc1ccc(O)c(O)c1)C(=O)O)C(c1ccc(O)c(O)c1)O2)OC(Cc1ccc(O)c(O)c1)C(=O)O (stereo not shown) | -1.8%
c1ccc2sc(SNC3CCCCC3)nc2c1 | -16.4%
CC[C@]12C=CCN3CC[C@@]4(c5cc([C@@]6(C(=O)OC)C[C@@H]7C[C@@H](C(C)(F)F)C[N@](CCc8c6[nH]c6ccccc86)C7)c(OC)cc5N(C)[C@H]4[C@@](O)(C(=O)OC)[C@@H]1OC(C)=O)[C@@H]32 | -14.4%

Sample 3
Target: Replicase polyprotein 1ab, nsp13 helicase (rep, Severe acute respiratory syndrome coronavirus 2, UniProt P0DTD1)
Action: inhibitor
Tested at: 20 µM
SMILES | inhibition [%]
Cc1cc(OCCCS(C)(=O)=O)cc(C)c1-c1cccc(COc2ccc3c(c2)OC[C@H]3CC(=O)O)c1 | 18.7
Cc1cc(OCc2nnc(SC3CCCC3)n2-c2cccnc2)ccc1-c1ccc(S(C)(=O)=O)cc1 | 5.07
O[C@H]1CC[C@H](Nc2ncc3nc(Nc4c(F)cc(F)cc4F)n([C@H]4CCOC4)c3n2)CC1 | 3.86
NC1CCN(c2cccc(Cl)n2)CC1 | 3.71
CC1CCN(C(c2ccc(F)cc2)c2ccc(C(C)C(=O)O)cc2-c2ccc(C(F)(F)F)cc2)CC1 (stereo not shown) | 0.17
CC1(C)CCC(C)(C)c2cc(C#Cc3ccc(C(=O)O)cc3)ccc21 | 0.58
CCOC(=O)c1c2c3c(cccc3[nH]c1=O)C(=O)c1ccccc1-2 | 7.85
N[C@@H](CS(=O)O)C(=O)O | 1.01
COc1ccc([C@@H]2CC(=O)c3c(O)cc(O[C@@H]4O[C@H](CO)[C@@H](O)[C@H](O)[C@H]4O[C@@H]4O[C@@H](C)[C@H](O)[C@@H](O)[C@H]4O)cc3O2)cc1O | 5.65
O=C(COc1ccc(C(=O)c2ccccc2)cc1)NC1CCN(Cc2ccccc2)CC1 | 0.58
Cc1cccc(Oc2cnc(=O)[nH]c2)c1 | 6.52
CCC(=O)NC[C@@H]1C[C@H]1c1cccc2c1CCO2 | 1.61
CCCCCCCCc1ccc(CCC(N)(CO)CO)cc1 | 8.2
C=CC1=C(C(=O)O)N2C(=O)[C@@H](NC(=O)/C(=N\O)c3csc(N)n3)[C@H]2SC1 | 8.97
Nc1nc2c(c(=O)[nH]1)NC(CNc1ccc(C(=O)N[C@@H](CCC(=O)O)C(=O)O)cc1)CN2 (stereo partly shown) | -2.14

Sample 4
Target: Centromere-binding protein 1, full length, N-terminal tag (CBF1, Saccharomyces cerevisiae, UniProt P17106, residues 1-351)
Chain of UniProt P17106 (whole entry, looked up): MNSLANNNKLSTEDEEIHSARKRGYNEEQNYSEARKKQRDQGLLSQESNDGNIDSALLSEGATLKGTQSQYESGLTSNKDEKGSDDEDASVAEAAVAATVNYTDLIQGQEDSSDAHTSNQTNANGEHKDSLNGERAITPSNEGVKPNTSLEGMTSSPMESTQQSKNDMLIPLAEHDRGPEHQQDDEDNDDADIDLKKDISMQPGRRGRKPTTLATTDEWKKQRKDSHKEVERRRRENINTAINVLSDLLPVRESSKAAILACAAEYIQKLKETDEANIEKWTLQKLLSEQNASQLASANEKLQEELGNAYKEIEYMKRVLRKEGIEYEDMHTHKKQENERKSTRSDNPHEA
Method: protein-binding microarray
Form: double-stranded DNA, one strand shown
Medium: in vitro
Tested at: 0.8 µM
Setting: whole 60-bp probe, no competitor
Reading: higher = stronger binding
Oligonucleotide | fluorescence intensity [a.u.]
TGTACGAAGCTATATCAACTGAATATAGTAGTTAGGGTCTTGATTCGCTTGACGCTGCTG | 520
CTATTGTCCGTAGTCATCGTGACTGGTTGACGTTTCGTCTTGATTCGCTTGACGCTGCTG | 803
GAAATTCAAATATATCACGTTGTGAGCAGCCCTTAGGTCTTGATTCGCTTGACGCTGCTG | 1140
GAAAAAAGTTTTCTTCTGATGTTAAAGTGTGTGTAGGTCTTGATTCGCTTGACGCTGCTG | 523
GAAGAATAAAGATATCACGTATACGGGAGAGATTAGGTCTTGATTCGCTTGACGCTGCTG | 573
GAACGTTTACAGCCATGTGAGGCAGTTACTTCTTAGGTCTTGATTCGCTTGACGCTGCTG | 644
CTAAAATGAGTCACGCACGCACAATCACGATTGTTCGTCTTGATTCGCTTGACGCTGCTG | 2360
GAAGTTTTTATGCTAATCGTGCTAGCTGATAATTAGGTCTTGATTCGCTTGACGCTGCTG | 540
